Measured values of several laboratories.
Lines come from different studies, so protocols differ. Values joined by “and” are separate records of one study, mostly repeats; a detail may differ. ± marks the error that the study gave. ≈ marks a conversion by molar mass, not a printed value.

COC(=O)C(c1ccccc1Cl)N1CCC(SCC(=O)c2cccc(OC)c2)C(=CC(=O)O)C1 (stereo not drawn)  stock solution stability time (acetonitrile; -20 °C): ≥ 2 months
CC[C@H](C)[C@@H]1NC(=O)[C@H](Cc2ccccc2)NC(=O)[C@@H](NC(=O)[C@H](CCCNC(=N)N)NC(=O)[C@H](Cc2ccccc2)NC(=O)[C@H](Cc2ccccc2)NC(=O)[C@H](CCCCN)NC(=O)[C@H](CO)NC(=O)[C@H](CC(C)C)NC(=O)[C@H](CCCNC(=N)N)NC(=O)[C@H](CCSC)NC(=O)[C@H](C)N)CNC(=O)NCCCC[C@@H](C(=O)N[C@@H](CCCNC(=N)N)C(=O)N[C@@H](CCCCN)C(=O)N[C@@H](CCCCN)C(=O)O)NC(=O)[C@H](CC(C)C)NC1=O  helicity (circular dichroism; 20% TFE in PBS; 200 µM, pH 7.4, 25 °C): 9.9%
Cn1c(=O)oc2ccc(-c3ccc(CC(C#N)NC(=O)C4CNCCCO4)c(F)c3)cc21 (stereo not drawn)  mouth ulceration incidence (human; oral, 20 mg once daily, TEAE, multiple ascending dose): 11.1%
CC(NC(=O)OC1OC(C(=O)O)C(O)C(O)C1O)c1cc(Cl)ccc1Cn1c(=S)[nH]c(=O)c2[nH]ccc21 (stereo not drawn)  exposure ratio (dog, both sexes, plasma; oral, 100 mg/kg/day; baseline: dog over human 10 mg): 1.4
COc1cc2c(cc1OC)CN(CCCCn1ccc3cc(OCC[18F])ccc31)C2  tracer uptake (male CD-1 mouse, brain; intravenous, 30 min): 2.68 %ID/g
COc1cc(F)c(C(C)C)cc1C1=C(CN2C(=O)O[C@H](c3cc(C(F)(F)F)cc(C(F)(F)F)c3)[C@@H]2C)CC(C)(C)CC1  Vd/F per body weight (non-compartmental analysis; healthy male subjects, plasma; oral, 50 mg single dose): 38.7 L/kg
C[Si](C)(C)C[C@H](CN)CC(=O)O  concentration (male Sprague-Dawley rat, plasma; oral, 30 mg/kg, 1 h, single dose): ~100 µM
COc1c2c(cc3oc(COC4OC(CO)C(O)C(O)C4O)cc(=O)c13)OC(C(C)(C)O)C2 (stereo not drawn)  stock solution stability (methanol; 2 mg/mL, 6 h, room temperature): 93.9 % accuracy
CCN(CC)CCN=S(=O)(c1ccccc1)N1CCCCC1 (stereo not drawn)  chromatographic logD (HPLC; pH 7.5): 1.9
[2H]C([2H])([2H])NC(=O)c1ccc(N2C(=S)N(c3ccc(C#N)c(C(F)(F)F)c3)C(=O)C2(C)C)cc1F  adverse events (healthy men; oral, 50 days, all dose groups pooled): 5 occurrences
CC(C)c1cnc(-c2cc(Cl)ccc2F)cc1Nc1ccncc1C(=O)NC(CO)CO  patients with treatment-related adverse event (monotherapy, item: fatigue; human patients; oral, dose not given, grade 2, phase I A): 0%
Clc1ccc(NCc2cn(-c3ccccc3)nc2-c2ccc(OCc3ccccc3)cc2)cc1  ulcer severity index (rat, gastric mucosa; oral, 60 mg/kg, 17 h; baseline: control score subtracted): 1.07 ± 0.27
[11CH3]c1ccc2nc(C3CCC3)n(-c3ccc4[nH]ncc4c3)c2n1  absorbed dose (extrapolated from mouse; human female, Lower large intestine wall): 5.9 µSv/MBq
NC(=O)c1ccc(C(=O)NOCc2ccc(Sc3cccc(Cl)c3)c(C(F)(F)F)c2)cc1  AUC(0-inf) (male ICR mouse, plasma; intravenous, 10 mg/kg): 14700 ng·h/mL
O=C([O-])CN1CCN(CC(=O)[O-])CCN(CC(=O)NCC2CCC(C(=O)NC(Cc3ccc4ccccc4c3)C(=O)NCCCCC(NC(=O)NC(CCC(=O)O)C(=O)O)C(=O)O)CC2)CCN(CC(=O)[O-])CC1.[44Sc+3] (stereo not drawn)  organ absorbed dose (PET/CT dosimetry, OLINDA/EXM; human, salivary glands): 0.097 mSv/MBq and 0.052 mSv/MBq and 0.035 mSv/MBq
CC(C)(Sc1ccncc1-c1ccc(C#N)c2ccccc12)C(=O)OC1OC(C(=O)O)C(O)C(O)C1O (stereo not drawn)  Cmax ratio (adult men, plasma; oral, 15 mg verinurad, moderate renal impairment; baseline: impaired over normal renal function): 212%
CCCCCCCCCCCCCCCC(=O)N[C@@H](CCCCN)C(=O)N[C@@H](CCCCN)C(=O)N[C@@H](CO)C(=O)N[C@@H](CCCNC(=N)N)C(=O)N[C@@H](C)C(=O)N[C@@H](CC(C)C)C(=O)N[C@@H](Cc1ccccc1)C(N)=O  prothrombin time (cynomolgus monkey, male; 10 mg/kg, day 1): 12.2 ± 0.6 s
CC[C@H](C)[C@@H]1NC(=O)[C@H](Cc2ccccc2)NC(=O)[C@@H](NC(=O)[C@H](CCCNC(=N)N)NC(=O)[C@H](Cc2ccccc2)NC(=O)[C@H](Cc2ccccc2)NC(=O)[C@H](CCCCN)NC(=O)[C@H](CO)NC(=O)[C@H](CC(C)C)NC(=O)[C@H](CCCNC(=N)N)NC(=O)[C@H](CCSC)NC(=O)[C@H](C)N)CCNC(=O)NCCCC[C@@H](C(=O)N[C@@H](CCCNC(=N)N)C(=O)N[C@@H](CCCCN)C(=O)N[C@@H](CCCCN)C(=O)O)NC(=O)[C@H](CC(C)C)NC1=O  helicity (circular dichroism; 20% TFE in PBS; 200 µM, pH 7.4, 25 °C): 12.6%
CCCCCCCCCCCCCCCC(=O)N[C@@H](CCCCN)C(=O)N[C@H](C(=O)N[C@H](C(=O)N[C@@H](CCCCN)C(=O)N[C@@H](CO)C(=O)O)[C@@H](C)O)[C@@H](C)O  amount retained in dermis (hairless mouse skin; 50 µg/cm^2, 24 h): 0.3 ± 0.1 µg/cm²
Cn1ccc(-c2cc(Cl)c(Cl)c3[nH]c4c(c23)CN(C(=O)CO)CC4)n1  cGAMP concentration (male C57BL/6 mice, concanavalin A, spleen; oral, 100 mg/kg, 16 h after concanavalin A): 7.3 µM
CCc1c2c(nc3ccc(O)cc13)-c1cc3c(c(=O)n1C2)COC(=O)[C@]3(O)CC  Cmax (human patients, plasma; intravenous, 133 mg/m^2 of parent drug): 310 ng/mL
O=c1c(/C=N/NC(=S)N/N=C/c2cc(Cl)ccc2O)coc2ccccc12  peak current ratio ipa/ipc (cyclic voltammetry; DMF; Cu2+ complex): 0.071
O=C(O)C1CN(Cc2ccc(-c3noc(-c4ccc(OCC[18F])c(C(F)(F)F)c4)n3)cc2)C1  tissue uptake (male Sprague-Dawley rat, blood; intravenous, 120 min): 0.178 ± 0.039 %ID/g
N#CC1=C(N)n2c(nnc2-c2ccccc2)NC1c1ccc(Br)cc1 (stereo not drawn)  ulcer severity score (rat male, stomach; oral, 10 mg/kg, 4 h; direction not given): 0.5 ± 0.01
N=C(N)NCCC[C@@H]1NC(=O)[C@H](Cc2c[nH]c3ccccc23)NC(=O)[C@@H](CC2CCCCC2)NC(=O)[C@@H]2CCCN2C(=O)[C@@H](NC(=O)CCc2ccccc2)CCCNC1=O  redistribution rate constant k21 (C57BL/6J mice, plasma; intraperitoneal, 1 mg/kg, two-compartment model): 2 h⁻¹
CN(Cc1ccc(F)cc1)Cc1cc(=O)oc2cc(O)ccc12  remaining intact compound (HepG2 cell medium; 0.5 mM, 60 min): > 99%
O=C(Cc1ccccc1)Nc1nc2ccccc2n1Cc1ccccc1  aqueous solubility (shake-flask LC-MS/MS; water; 24 h, room temperature): 1.16 µg/mL (≈ 3.4 µM)

For quick reference, copied from above:
CCc1c2c(nc3ccc(O)cc13)-c1cc3c(c(=O)n1C2)COC(=O)[C@]3(O)CC  Cmax (human patients, plasma; intravenous, 133 mg/m^2 of parent drug): 310 ng/mL
COc1cc(F)c(C(C)C)cc1C1=C(CN2C(=O)O[C@H](c3cc(C(F)(F)F)cc(C(F)(F)F)c3)[C@@H]2C)CC(C)(C)CC1  Vd/F per body weight (non-compartmental analysis; healthy male subjects, plasma; oral, 50 mg single dose): 38.7 L/kg
